# Measured values from different studies.
# Lines come from different studies, so protocols differ. Several values in a cell are separate wells, animals, samples, runs or records.
# B1: human CCT2; sequence looked up; chain ASLSLAPVNIFKAGADEERAETARLTSFIGAIAIGDLVKSTLGPKGMDKILLSSGRDASLMVTNDGATILKNIGVDNPAAKVLVDMSRVQDDEVGDGTTSVTVLAAELLREAESLIAKKIHPQTIIAGWREATKAAREALLSSAVDHGSDEVKFRQDLMNIAGTTLSSKLLTHHKDHFTKLAVEAVLRLKGSGNLEAIHIIKKLGGSLADSYLDEGFLLDKKIGVNQPKRIENAKILIANTGMDTDKIKIFGSRVRVDSTAKVAEIEHAEKEKMKEKVERILKHGINCFINRQLIYNYPEQLFGAAGVMAIEHADFAGVERLALVTGGEIASTFDHPELVKLGSCKLIEEVMIGEDKLIHFSGVALGEACTIVLRGATQQILDEAERSLHDALCVLAQTVKDSRTVYGGGCSEMLMAHAVTQLANRTPGKEAVAMESYAKALRMLPTIIADNAGYDSADLVAQLRAAHSEGNTTAGLDMREGTIGDMAILGITESFQVKRQVLLSAAEAAEVILRVDNIIKAAPRKRVPDHHPC
Molecule,tested on,assay,system,setting,how to read,quantity,value
DAPT,Staphylococcus aureus,,ATCC 29213,,,MIC,1.5 µg/mL
Polymyxin B,Staphylococcus aureus,,CGMCC 1.9,"concentration not given, 18 h, 37 °C",,inhibition zone diameter,11 mm
Triosephosphate isomerase (human),PP6C (human),"co-immunoprecipitation, IP-MS",CYB5R4 knockout cells,concentration not given,relative to: CYB5R4 knockout over parental,log2 fold change,0.58
colistin,Staphylococcus aureus,,"ATCC 25293, RPMI 1640 10% FBS","18 to 24 h, 37 °C",,MIC,12.5 µM
gentamicin sulfate,Staphylococcus aureus,,ATCC 35923,"18 h, 37 °C, together with: LED light 1.57 mW, 10 min",,MIC,1 µM
B1 (human CCT2),CYB5R4 knockout human cells,"PP4 interaction, 3xFLAG-PP4C IP-MS",,concentration not given,relative to: CYB5R4 KO over parental,log2 fold change,0.81
Polymyxin B,Staphylococcus aureus,broth microdilution,MRSA clinical isolate,,,MIC,> 32 µg/mL
Polymyxin B,Staphylococcus aureus,DiSC3(5) fluorescence,,"concentration not given, 81 min",higher = more depolarisation,membrane depolarisation,506 a.u. and 438 a.u. and 555 a.u.
benzalkonium chloride,Staphylococcus aureus,,SH1000 MSSA,tested up to 1 µM,,MIC,4 µM
Polymyxin B,Staphylococcus aureus,,,"concentration not given, together with: KCl 4.5 mM",relative to: no added salt,MIC fold change,2 fold
